# Measurements collected from several papers.
# A part holds a random share of what one study measured. Values joined by “and” are separate records of one study, mostly repeats; a detail may differ.
# Sequence of UniProt P15170 (whole entry, looked up): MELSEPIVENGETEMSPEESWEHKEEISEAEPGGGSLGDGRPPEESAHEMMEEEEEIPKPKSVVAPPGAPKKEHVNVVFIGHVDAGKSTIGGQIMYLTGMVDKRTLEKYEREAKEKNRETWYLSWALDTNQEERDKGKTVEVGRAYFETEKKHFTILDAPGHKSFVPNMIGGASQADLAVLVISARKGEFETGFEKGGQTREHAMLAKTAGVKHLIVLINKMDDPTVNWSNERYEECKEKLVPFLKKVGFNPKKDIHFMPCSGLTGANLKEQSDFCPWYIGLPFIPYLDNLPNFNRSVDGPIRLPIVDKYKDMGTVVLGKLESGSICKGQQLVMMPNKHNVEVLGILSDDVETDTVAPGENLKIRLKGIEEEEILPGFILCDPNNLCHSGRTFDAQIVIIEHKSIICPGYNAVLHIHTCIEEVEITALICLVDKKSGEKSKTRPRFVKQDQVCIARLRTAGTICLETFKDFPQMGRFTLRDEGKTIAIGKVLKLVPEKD
# Sequence of UniProt Q9H2S9 (whole entry, looked up): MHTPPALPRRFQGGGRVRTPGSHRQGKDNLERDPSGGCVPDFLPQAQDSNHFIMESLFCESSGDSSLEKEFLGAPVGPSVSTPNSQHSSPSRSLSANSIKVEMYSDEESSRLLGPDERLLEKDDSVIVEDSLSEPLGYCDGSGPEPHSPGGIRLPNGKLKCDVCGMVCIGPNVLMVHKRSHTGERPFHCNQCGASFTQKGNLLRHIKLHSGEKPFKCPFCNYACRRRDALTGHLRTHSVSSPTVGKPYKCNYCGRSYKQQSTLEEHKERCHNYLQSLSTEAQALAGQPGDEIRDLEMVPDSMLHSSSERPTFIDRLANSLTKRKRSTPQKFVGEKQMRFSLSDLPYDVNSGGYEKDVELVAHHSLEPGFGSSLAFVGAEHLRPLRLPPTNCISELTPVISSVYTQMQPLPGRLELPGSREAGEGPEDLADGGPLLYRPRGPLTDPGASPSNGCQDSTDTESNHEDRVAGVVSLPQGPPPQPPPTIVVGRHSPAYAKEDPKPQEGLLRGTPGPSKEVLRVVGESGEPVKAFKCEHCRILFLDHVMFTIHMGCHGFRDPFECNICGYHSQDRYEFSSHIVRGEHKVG

# Set 1
# Compound: O=C1CCC(N2Cc3cc(C4CCN(Cc5ccccc5)CC4)ccc3C2=O)C(=O)N1 (stereo not drawn)
# Action: degrader
# DNA-binding protein Ikaros: DNA-binding protein Ikaros (Homo sapiens, UniProt Q13422)
# Sequence of UniProt Q13422 (whole entry, looked up): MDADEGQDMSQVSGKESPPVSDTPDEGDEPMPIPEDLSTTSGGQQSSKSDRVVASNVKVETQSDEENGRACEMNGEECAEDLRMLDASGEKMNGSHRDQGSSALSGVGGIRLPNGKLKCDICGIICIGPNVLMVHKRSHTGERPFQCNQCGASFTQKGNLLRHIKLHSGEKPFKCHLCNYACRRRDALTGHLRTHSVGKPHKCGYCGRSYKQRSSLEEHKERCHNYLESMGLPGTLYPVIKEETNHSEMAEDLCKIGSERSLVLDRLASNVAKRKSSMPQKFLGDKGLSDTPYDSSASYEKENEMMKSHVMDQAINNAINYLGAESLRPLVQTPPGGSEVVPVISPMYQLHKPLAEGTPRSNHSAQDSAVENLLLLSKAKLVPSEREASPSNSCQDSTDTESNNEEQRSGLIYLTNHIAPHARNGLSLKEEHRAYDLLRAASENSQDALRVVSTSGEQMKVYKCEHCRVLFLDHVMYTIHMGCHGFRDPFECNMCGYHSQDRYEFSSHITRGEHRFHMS
# CSNK1A1: Casein kinase I isoform alpha (CSNK1A1, Homo sapiens, UniProt P48729)
# Sequence of UniProt P48729 (whole entry, looked up): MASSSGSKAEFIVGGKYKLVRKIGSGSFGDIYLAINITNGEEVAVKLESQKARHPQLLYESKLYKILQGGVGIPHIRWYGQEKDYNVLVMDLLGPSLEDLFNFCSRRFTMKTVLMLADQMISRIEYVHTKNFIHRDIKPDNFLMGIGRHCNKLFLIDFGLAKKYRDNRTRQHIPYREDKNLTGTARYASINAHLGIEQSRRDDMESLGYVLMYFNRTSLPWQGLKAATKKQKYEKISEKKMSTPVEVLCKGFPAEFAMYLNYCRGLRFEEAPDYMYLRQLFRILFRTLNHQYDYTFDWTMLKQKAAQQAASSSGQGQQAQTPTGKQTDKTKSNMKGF
target,assay,test system,setting,remaining protein
DNA-binding protein Ikaros,HiBiT,HEK293,0.04115 µM,88.8% and 109%
"Eukaryotic peptide chain release factor GTP-binding subunit ERF3A (GSPT1, Homo sapiens, UniProt P15170)",HiBiT,HEK293,0.001524 µM,114% and 86.8%
DNA-binding protein Ikaros,HiBiT,HEK293,"0.004572 µM, 6 h",93.8%
"Zinc finger protein Eos (IKZF4, Homo sapiens, UniProt Q9H2S9)",HiBiT,HEK293,"1 µM, 3 h",124%
"CRBN/Zinc finger protein Helios (Homo sapiens, UniProt Q96SW2+Q9UKS7)",flow cytometry,primary human regulatory T cells,"0.001372 µM, 3 h",104%
CSNK1A1,HiBiT,HEK293,"3.333 µM, 6 h",84.5%
CSNK1A1,HiBiT,HEK293,"10 µM, 6 h",94.7%

# Set 2
# SMILES: CCC(=N\O)/C(C)=C/c1ccc(F)cc1
# Effect on: cell-free assay
# Method: competition with immobilised ligand
# Concentration: 1 µM
target,remaining binding [%]
"Cyclin-dependent kinase 16 (CDK16, Homo sapiens, UniProt Q00536)",86
"Proto-oncogene tyrosine-protein kinase ROS (ROS1, Homo sapiens, UniProt P08922)",87
"G protein-coupled receptor kinase 3 (GRK3, Homo sapiens, UniProt P35626)",92
"Microtubule-associated serine/threonine-protein kinase 1 (MAST1, Homo sapiens, UniProt Q9Y2H9)",71
"Macrophage-stimulating protein receptor (MST1R, Homo sapiens, UniProt Q04912)",100
"Phosphatidylinositol 4,5-bisphosphate 3-kinase catalytic subunit alpha isoform (PIK3CA, Homo sapiens, UniProt P42336, C420R)",79
"Serine/threonine-protein kinase D1 (PRKD1, Homo sapiens, UniProt Q15139)",71
"Mitogen-activated protein kinase 13 (MAPK13, Homo sapiens, UniProt O15264)",92

# Set 3
# Target: DNA polymerase theta, ATPase domain (POLQ, Homo sapiens, UniProt O75417)
# Sequence of UniProt O75417 (whole entry, unmodified, looked up): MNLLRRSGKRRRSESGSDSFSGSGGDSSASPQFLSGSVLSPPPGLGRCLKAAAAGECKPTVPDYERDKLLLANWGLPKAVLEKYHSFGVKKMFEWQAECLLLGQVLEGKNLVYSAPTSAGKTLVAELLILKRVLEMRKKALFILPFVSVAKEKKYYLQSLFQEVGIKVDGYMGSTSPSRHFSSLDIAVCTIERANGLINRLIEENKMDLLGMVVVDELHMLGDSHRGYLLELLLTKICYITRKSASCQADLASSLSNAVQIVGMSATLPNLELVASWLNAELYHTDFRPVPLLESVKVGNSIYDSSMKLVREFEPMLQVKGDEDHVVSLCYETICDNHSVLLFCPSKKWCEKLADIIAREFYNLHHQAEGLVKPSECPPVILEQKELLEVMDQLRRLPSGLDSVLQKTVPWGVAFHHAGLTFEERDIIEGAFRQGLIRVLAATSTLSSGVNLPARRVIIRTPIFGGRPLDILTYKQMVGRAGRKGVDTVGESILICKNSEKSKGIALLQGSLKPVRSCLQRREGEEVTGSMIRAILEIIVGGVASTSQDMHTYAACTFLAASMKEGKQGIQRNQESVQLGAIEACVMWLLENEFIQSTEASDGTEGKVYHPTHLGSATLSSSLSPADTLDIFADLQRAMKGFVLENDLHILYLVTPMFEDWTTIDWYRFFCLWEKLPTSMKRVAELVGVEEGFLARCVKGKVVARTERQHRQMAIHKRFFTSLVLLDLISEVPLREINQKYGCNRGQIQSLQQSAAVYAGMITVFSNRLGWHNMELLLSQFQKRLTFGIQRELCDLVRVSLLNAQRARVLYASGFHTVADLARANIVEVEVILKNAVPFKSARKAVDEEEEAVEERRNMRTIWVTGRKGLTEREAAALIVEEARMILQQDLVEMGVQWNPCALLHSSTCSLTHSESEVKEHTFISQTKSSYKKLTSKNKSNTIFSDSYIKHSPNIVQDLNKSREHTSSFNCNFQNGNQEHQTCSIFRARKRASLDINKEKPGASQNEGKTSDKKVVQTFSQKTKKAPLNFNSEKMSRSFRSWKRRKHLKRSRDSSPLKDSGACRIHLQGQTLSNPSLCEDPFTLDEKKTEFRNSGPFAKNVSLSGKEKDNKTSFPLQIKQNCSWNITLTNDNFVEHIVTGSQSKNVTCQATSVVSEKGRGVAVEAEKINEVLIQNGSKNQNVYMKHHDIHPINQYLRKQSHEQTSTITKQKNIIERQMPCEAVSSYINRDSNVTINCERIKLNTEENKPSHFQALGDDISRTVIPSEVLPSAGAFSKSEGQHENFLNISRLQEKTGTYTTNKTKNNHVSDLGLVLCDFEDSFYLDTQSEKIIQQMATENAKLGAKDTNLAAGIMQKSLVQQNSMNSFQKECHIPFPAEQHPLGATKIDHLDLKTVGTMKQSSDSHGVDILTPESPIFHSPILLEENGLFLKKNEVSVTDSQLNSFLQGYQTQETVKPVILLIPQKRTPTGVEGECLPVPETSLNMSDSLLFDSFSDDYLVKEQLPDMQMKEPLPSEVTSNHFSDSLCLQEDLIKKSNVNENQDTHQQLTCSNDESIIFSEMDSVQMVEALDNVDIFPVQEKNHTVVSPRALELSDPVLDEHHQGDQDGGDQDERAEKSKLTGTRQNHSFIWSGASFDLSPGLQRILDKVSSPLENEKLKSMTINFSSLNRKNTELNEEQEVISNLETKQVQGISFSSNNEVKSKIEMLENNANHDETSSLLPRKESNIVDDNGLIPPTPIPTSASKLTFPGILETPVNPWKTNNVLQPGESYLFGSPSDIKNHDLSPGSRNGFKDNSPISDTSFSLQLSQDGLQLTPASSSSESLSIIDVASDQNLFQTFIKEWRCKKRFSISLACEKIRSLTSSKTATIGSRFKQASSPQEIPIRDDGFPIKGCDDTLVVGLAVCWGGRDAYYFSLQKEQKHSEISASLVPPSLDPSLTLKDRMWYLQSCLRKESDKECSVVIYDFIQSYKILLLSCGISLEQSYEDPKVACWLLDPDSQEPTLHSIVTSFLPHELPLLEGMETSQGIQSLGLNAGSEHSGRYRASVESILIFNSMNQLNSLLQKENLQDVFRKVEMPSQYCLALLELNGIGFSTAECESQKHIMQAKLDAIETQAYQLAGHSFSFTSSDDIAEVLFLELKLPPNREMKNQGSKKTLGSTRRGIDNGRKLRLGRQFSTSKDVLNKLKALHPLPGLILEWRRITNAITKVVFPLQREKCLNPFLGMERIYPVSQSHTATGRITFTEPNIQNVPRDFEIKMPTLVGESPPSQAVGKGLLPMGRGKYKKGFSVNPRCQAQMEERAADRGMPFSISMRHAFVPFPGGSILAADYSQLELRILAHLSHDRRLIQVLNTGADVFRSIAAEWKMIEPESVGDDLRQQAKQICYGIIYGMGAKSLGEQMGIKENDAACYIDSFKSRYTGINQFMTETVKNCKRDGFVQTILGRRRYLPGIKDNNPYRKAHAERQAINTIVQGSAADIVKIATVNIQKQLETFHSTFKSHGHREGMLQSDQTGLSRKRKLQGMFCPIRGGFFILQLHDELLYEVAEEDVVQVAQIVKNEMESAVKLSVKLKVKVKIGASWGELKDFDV
# Effect on: enzyme activity
# Action: inhibitor
# Concentration: 77 µM
# Reference: untreated
Structure (SMILES),remaining activity
CC(=O)OCC(CCn1cnc2cnc(N)nc21)COC(C)=O,96.1%
CC(=O)[C@H]1CC[C@H]2[C@@H]3CC=C4C[C@@H](O)CC[C@]4(C)[C@H]3CC[C@]12C,93.3% and 98.7%
C[C@H]1C[C@@H]2[C@H]([C@@H](O)C[C@@]3(C)[C@H]2CC[C@]3(O)C(=O)CO)[C@@]2(C)C=CC(=O)C=C12,99.5% and 97%
C=C(CC)C(=O)c1ccc(OCC(=O)O)c(Cl)c1Cl,97.7%
O=C(NNc1ccccc1)c1ccncc1,81.8%
C1=N/C2=N/c3ccc(OCCN4CCCC4)c(c3)COC/C=C/COCc3cccc(c3)C(=C1)N2,96.9%
O=C(O)c1cc(-c2ccccc2)nc2ccccc12,92.5%

# Set 4
# Target: Tyrosine-protein kinase Fyn (FYN, Homo sapiens, UniProt P06241)
# Sequence of UniProt P06241 (whole entry, looked up): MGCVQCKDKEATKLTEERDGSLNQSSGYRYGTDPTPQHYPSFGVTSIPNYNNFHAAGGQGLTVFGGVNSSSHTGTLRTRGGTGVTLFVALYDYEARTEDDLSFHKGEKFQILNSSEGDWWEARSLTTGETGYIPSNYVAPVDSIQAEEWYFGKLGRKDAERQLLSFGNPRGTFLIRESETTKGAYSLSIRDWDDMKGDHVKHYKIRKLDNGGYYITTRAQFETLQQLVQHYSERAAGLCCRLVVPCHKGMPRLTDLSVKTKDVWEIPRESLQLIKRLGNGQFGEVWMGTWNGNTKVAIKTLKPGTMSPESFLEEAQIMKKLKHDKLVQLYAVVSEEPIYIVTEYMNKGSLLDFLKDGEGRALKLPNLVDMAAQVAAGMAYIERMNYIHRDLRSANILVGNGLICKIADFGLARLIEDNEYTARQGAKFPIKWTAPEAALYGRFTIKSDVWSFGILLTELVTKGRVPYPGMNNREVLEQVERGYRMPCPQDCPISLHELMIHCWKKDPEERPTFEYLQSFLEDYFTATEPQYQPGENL
# Effect on: enzyme activity
# Action: inhibitor
# Concentration: 0.5 µM
# Reference: control
Compound,remaining activity [%]
CNC(=O)c1cc(Oc2ccc(NC(=O)Nc3ccc(Cl)c(C(F)(F)F)c3)cc2)ccn1,91.6
Nc1ncnc2n[nH]c(Nc3ccc(F)cc3)c12,93
CN(C)c1ccc(C=C2C(=O)Nc3ccccc32)cc1,104
O=C1NC(=O)C(c2cn(CCCn3ccnc3)c3ccccc23)=C1Nc1ccccc1,102
O=C1NC(=O)C(c2cn(CCCO)c3ncccc23)=C1c1cnccn1,107
COc1ccc(CNC(=O)Nc2ncc([N+](=O)[O-])s2)cc1,102
Cc1cccc(-c2[nH]c(C(C)(C)C)nc2-c2ccc3c(c2)OCO3)n1,108
Oc1ccc(-c2nc(-c3ccncc3)c(-c3ccc(F)cc3)[nH]2)cc1,87.5
NCCNc1ncc(C(N)=O)c(Nc2cccc(C(F)(F)F)c2)n1,91.6
COc1ccc(C(=O)Nc2sc3c(c2C(N)=O)CCCC3)cc1OC,93.9
COc1cc2nccc(Oc3ccc(NC(=S)NC(=O)c4ccccc4C)cc3)c2cc1OC,77.4
O=C(Nc1cccc(Nc2cc(Nc3cccc(C(F)(F)F)c3)ncn2)c1)C1CC1,100
CCOC(=O)c1c(C)[nH]c(/C=C2\C(=O)Nc3ccccc32)c1C,97.3
O=C(CCCc1ccc(-c2ccccc2F)cc1)Nc1ccc(O)cc1,94.7

# Repeated from above (set 4):
Compound,remaining activity [%]
Cc1cccc(-c2[nH]c(C(C)(C)C)nc2-c2ccc3c(c2)OCO3)n1,108
Oc1ccc(-c2nc(-c3ccncc3)c(-c3ccc(F)cc3)[nH]2)cc1,87.5
NCCNc1ncc(C(N)=O)c(Nc2cccc(C(F)(F)F)c2)n1,91.6
COc1ccc(C(=O)Nc2sc3c(c2C(N)=O)CCCC3)cc1OC,93.9
